Published values gathered from unrelated publications.
Each line is one published result; not all experiments were run side by side. Numbers after ± are the reported error.

COc1ccccc1-c1n[nH]c2nc(NC3CCN(C(=O)Cc4ccc(F)cc4F)CC3)ncc12  relative abundance (bead binding, competition bead pull-down, item: LINJ.28.3060; Leishmania donovani axenic amastigote extract; 10 µM; relative to: vehicle): 0.95
COc1ccc(CNc2ccc3c(c2)S(=O)(=O)C=C3)cc1  CD8+ cells (flow cytometry; male C57BL/6 mice, spleen; i.p., 10 mg/kg, 8 days; relative to: CD45+ cells): 10.7%
CSCC[C@H](N)C(=O)N[C@@H](C)C(=O)N[C@@H](Cc1c[nH]c2ccccc12)C(=O)N[C@@H](Cc1c[nH]cn1)C(=O)N[C@@H](CC(=O)O)C(=O)N[C@@H](CC(=O)O)C(=O)N[C@@H](CCC(=O)O)C(=O)N[C@@H](CCC(=O)O)C(=O)N[C@@H](Cc1ccccc1)C(=O)N[C@@H](C)C(=O)N[C@@H](CCCNC(=N)N)C(=O)N[C@@H](CCCNC(=N)N)C(=O)N[C@@H](CCCNC(=N)N)C(=O)N[C@@H](CCCNC(=N)N)C(=O)NCCCCCC(=O)NCCCCC(NC(=O)CCCCCNC(=O)[C@H](CCCNC(=N)N)NC(=O)[C@H](CCCNC(=N)N)NC(=O)[C@H](CCCNC(=N)N)NC(=O)[C@H](CCCNC(=N)N)NC(=O)[C@H](C)NC(=O)[C@H](Cc1ccccc1)NC(=O)[C@H](CCC(=O)O)NC(=O)[C@H](CCC(=O)O)NC(=O)[C@H](CC(=O)O)NC(=O)[C@H](CC(=O)O)NC(=O)[C@H](Cc1c[nH]cn1)NC(=O)[C@H](Cc1c[nH]c2ccccc12)NC(=O)[C@H](C)NC(=O)[C@@H](N)CCSC)C(=O)NCCCCC(NC(=O)C(CCCCNC(=O)CCCCCNC(=O)[C@H](CCCNC(=N)N)NC(=O)[C@H](CCCNC(=N)N)NC(=O)[C@H](CCCNC(=N)N)NC(=O)[C@H](CCCNC(=N)N)NC(=O)[C@H](C)NC(=O)[C@H](Cc1ccccc1)NC(=O)[C@H](CCC(=O)O)NC(=O)[C@H](CCC(=O)O)NC(=O)[C@H](CC(=O)O)NC(=O)[C@H](CC(=O)O)NC(=O)[C@H](Cc1c[nH]cn1)NC(=O)[C@H](Cc1c[nH]c2ccccc12)NC(=O)[C@H](C)NC(=O)[C@@H](N)CCSC)NC(=O)CCCCCNC(=O)[C@H](CCCNC(=N)N)NC(=O)[C@H](CCCNC(=N)N)NC(=O)[C@H](CCCNC(=N)N)NC(=O)[C@H](CCCNC(=N)N)NC(=O)[C@H](C)NC(=O)[C@H](Cc1ccccc1)NC(=O)[C@H](CCC(=O)O)NC(=O)[C@H](CCC(=O)O)NC(=O)[C@H](CC(=O)O)NC(=O)[C@H](CC(=O)O)NC(=O)[C@H](Cc1c[nH]cn1)NC(=O)[C@H](Cc1c[nH]c2ccccc12)NC(=O)[C@H](C)NC(=O)[C@@H](N)CCSC)C(N)=O (stereo partly shown)  mean tissue distribution (C57BL/6 mouse female, lungs; dose not given, 6 h; relative to: total): 1.64%
Cn1nc(NS(C)(=O)=O)c2c(Cl)ccc(-n3c([C@H](Cc4cc(F)cc(F)c4)NC(=O)Cn4nc(C(F)F)c5c4C(F)(F)[C@@H]4C[C@H]54)nc4nc(OCCC(F)(F)F)ccc4c3=O)c21  AUC(0-inf) (human, plasma; oral, 25 mg single dose, powder in bottle, geometric mean): 2760 ng·h/mL
CN1CCCCC1C(=O)NC(Cc1ccc(-c2ccccc2)cc1)B(O)O (stereo not shown)  AUC(0-t) (male Sprague-Dawley rats, plasma; oral, 1 mg/kg, 24 h, citrate ester): 835 nM·h
CCc1nn(C)c2nc(-c3ccc(C(=O)O)cc3)nc(NCc3ccccc3)c12  concentration (male CD-1 mouse, plasma; oral, 10 mg/kg, 7 h): 303 ng/mL
O=C1NC2(CC2)COc2ncc(F)cc2[C@H]2COCCN2c2ccn3ncc1c3n2  albumin (Sprague-Dawley rat, male, serum; oral, 2.5 mg/kg/day, 4 weeks daily, end of recovery period): 38.9 ± 1.7 g/L
CN1Cc2cc(Cl)ccc2-n2c(nnc2C2CCN(c3cccc([18F])n3)CC2)C1  tissue uptake (C57BL/6 mouse male, thymus; intravenous, 3.7 MBq, 60 min): 3.58 ± 4.09 %ID/g
CC[C@H](C)[C@H](N)C(=O)N[C@@H](CCCNC(=N)N)C(=O)N[C@H](C(=O)N[C@@H](Cc1c[nH]c2ccccc12)C(=O)N[C@@H](CCCCN)C(=O)N[C@@H](CCCCN)C(=O)N[C@H](C(=O)N[C@H](C(=O)N[C@@H](CCCNC(=N)N)C(=O)N[C@@H](CCCCN)C(=O)N[C@@H](CCSC)C(=O)N[C@@H](CCCCN)C(=O)N[C@@H](C)C(=O)N[C@H](C(=O)N[C@@H](Cc1ccc(O)cc1)C(=O)N[C@@H](Cc1c[nH]cn1)C(N)=O)[C@@H](C)CC)C(C)C)[C@@H](C)CC)C(C)C  elution acetonitrile content (reversed-phase UPLC; C18 column, TFA): 45.6%
CC(C)[C@@H]1NC(=O)CNC(=O)[C@H](CC(N)=O)NC(=O)[C@H](CCCNC(=N)N)NC(=O)[C@H](Cc2ccc(O)cc2)NC(=O)[C@H](C(C)C)NC(=O)[C@@H](NC(=O)[C@@H](NC(=O)[C@H](CC(N)=O)NC(=O)[C@H](Cc2c[nH]c3ccccc23)NC(=O)[C@H](C)NC(=O)[C@H](Cc2ccccc2)NC(=O)CNC(=O)[C@H](CCCCN)NC(=O)[C@H](Cc2ccccc2)NC(=O)[C@H](Cc2ccccc2)NC(=O)[C@H](CCCCN)NC(=O)OCC2c3ccccc3-c3ccccc32)C(C)C)CSSC[C@@H](C(=O)N[C@@H](Cc2c[nH]cn2)C(=O)N[C@@H](CCCNC(=N)N)C(=O)N[C@@H](CCCNC(=N)N)C(=O)N[C@@H](C)C(=O)N[C@@H](CC(N)=O)C(N)=O)NC(=O)[C@H](C(C)C)NC(=O)[C@H](CCCNC(=N)N)NC1=O  globulin (ICR mice, serum; intraperitoneal, 10 mg/kg, day 5): 18.82 ± 0.04 g/L
CC[C@H](C)[C@H](NC(=O)[C@H](C)NC(=O)CNC(=O)[C@H](Cc1c[nH]cn1)NC(=O)[C@@H](NC(=O)[C@H](Cc1ccccc1)NC(=O)[C@H](CCCCN)NC(=O)CNC(=O)[C@H](C)NC(=O)[C@H](CCCCN)NC(=O)[C@H](Cc1ccccc1)NC(=O)[C@@H](NC(=O)[C@H](Cc1c[nH]cn1)NC(=O)[C@H](CCCCN)NC(=O)[C@H](Cc1ccccc1)NC(=O)[C@@H](NC(=O)[C@H](CO)NC(=O)CNC(=O)[C@H](Cc1c[nH]c2ccccc12)NC(=O)CNC(=O)[C@H](C)N)[C@@H](C)CC)[C@@H](C)CC)[C@@H](C)CC)C(=O)N[C@@H](CCC(N)=O)C(=O)N[C@@H](C)C(=O)N[C@@H](Cc1c[nH]cn1)C(=O)N[C@@H](CC(N)=O)C(=O)N[C@@H](CC(=O)O)C(N)=O  chronic toxic concentration (zebrafish embryos 4 hpf, E3 medium; 24 h): 5 µM
COc1cnc2cccc(N3CCc4c(cc(Cn5ccnc5)cc4-c4cn(C)nc4C(F)(F)F)C3=O)c2c1  body weight change (CD-1 mouse; intraperitoneal, 100 mg/kg once daily, day 3, dose-escalation tolerability; relative to: day 1): 5.6%
CC[C@H](C)[C@H](NC(=O)[C@H](CCCCN)NC(=O)CNC(=O)[C@H](CC(C)C)NC(=O)[C@H](Cc1ccccc1)NC(=O)[C@H](CCCCN)NC(=O)[C@H](CO)NC(=O)[C@H](Cc1ccccc1)NC(=O)[C@H](Cc1c[nH]c2ccccc12)NC(=O)[C@H](CCC(N)=O)NC(=O)[C@@H](NC(=O)[C@H](Cc1ccccc1)NC(=O)CCCCCNC(=O)CN1CCN(CC(=O)O)CCN(CC(=O)O)CCN(CC(=O)O)CC1)C(C)C)C(=O)N[C@@H](CCC(=O)O)C(=O)N1CCC[C@H]1C(=O)N[C@@H](CC(=O)O)C(=O)N[C@H](C(=O)N[C@@H](CO)C(=O)N[C@@H](CCC(N)=O)C(=O)N[C@H](C(=O)N[C@@H](CCC(N)=O)C(=O)N[C@@H](CC(=O)O)C(=O)N1CCC[C@H]1C(=O)N[C@@H](CC(N)=O)C(=O)N[C@@H](CC(=O)O)C(=O)N[C@@H](CCC(N)=O)C(=O)N[C@@H](Cc1ccc(O)cc1)C(=O)N[C@@H](CCC(=O)O)C(=O)N1CCC[C@H]1C(=O)N[C@@H](Cc1ccccc1)C(=O)O)C(C)C)C(C)C [copper-64 labelled]  tissue uptake (C57BL/6 mice, lung; added: LPS 0.1 mg/kg intratracheal): 3.41 ± 0.3 %ID/g

For quick reference, copied from above:
O=C1NC2(CC2)COc2ncc(F)cc2[C@H]2COCCN2c2ccn3ncc1c3n2  albumin (Sprague-Dawley rat, male, serum; oral, 2.5 mg/kg/day, 4 weeks daily, end of recovery period): 38.9 ± 1.7 g/L
